Published values gathered from unrelated publications.
A part holds a random share of what one study measured. “And” joins repeats or separate records; there may be more than shown.
UniProt Q12851, sequence (whole entry, looked up): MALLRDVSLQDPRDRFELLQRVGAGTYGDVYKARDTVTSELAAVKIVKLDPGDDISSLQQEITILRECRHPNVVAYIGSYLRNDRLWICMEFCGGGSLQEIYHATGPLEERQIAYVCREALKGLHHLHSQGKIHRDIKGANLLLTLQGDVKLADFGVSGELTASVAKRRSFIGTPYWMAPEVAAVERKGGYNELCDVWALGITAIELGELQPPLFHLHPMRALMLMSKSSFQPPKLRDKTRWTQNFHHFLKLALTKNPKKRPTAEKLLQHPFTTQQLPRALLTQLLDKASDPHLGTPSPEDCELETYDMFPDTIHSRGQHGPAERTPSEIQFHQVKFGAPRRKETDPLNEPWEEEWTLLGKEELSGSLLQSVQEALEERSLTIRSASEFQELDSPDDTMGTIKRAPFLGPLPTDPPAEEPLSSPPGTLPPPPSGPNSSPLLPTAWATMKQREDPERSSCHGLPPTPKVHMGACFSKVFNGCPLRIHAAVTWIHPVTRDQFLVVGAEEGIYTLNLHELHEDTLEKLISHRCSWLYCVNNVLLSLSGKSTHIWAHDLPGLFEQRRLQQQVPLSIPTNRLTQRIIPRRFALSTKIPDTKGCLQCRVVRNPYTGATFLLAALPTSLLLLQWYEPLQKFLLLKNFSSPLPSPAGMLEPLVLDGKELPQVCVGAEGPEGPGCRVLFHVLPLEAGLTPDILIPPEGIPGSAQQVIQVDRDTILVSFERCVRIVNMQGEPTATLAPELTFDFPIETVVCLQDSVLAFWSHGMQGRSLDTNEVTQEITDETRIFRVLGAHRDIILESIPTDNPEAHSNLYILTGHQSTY
UniProt P46734, sequence (whole entry, looked up): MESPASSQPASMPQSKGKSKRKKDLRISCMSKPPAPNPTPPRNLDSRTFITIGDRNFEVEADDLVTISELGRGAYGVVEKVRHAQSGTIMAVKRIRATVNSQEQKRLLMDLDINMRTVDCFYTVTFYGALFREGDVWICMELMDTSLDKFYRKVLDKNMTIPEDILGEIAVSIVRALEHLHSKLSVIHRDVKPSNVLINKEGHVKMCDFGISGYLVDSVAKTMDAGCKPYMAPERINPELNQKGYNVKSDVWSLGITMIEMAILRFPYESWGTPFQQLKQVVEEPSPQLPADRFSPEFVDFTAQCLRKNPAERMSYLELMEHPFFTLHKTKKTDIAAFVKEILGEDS
UniProt Q9UBE8, sequence (whole entry, looked up): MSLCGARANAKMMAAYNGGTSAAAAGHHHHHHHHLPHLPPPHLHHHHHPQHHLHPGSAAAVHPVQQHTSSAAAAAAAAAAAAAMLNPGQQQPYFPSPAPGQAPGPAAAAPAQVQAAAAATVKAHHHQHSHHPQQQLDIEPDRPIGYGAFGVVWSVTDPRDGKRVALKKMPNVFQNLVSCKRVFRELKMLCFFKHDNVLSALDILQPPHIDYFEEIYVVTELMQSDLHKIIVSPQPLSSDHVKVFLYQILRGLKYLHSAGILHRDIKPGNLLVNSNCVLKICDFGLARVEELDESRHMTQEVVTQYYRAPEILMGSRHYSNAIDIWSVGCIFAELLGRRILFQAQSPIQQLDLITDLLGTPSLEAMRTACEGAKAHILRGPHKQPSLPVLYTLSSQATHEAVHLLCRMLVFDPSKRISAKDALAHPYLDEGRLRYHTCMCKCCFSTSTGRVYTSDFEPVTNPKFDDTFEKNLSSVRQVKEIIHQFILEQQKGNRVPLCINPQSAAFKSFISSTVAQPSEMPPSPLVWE
UniProt Q9Y2U5, sequence (whole entry, looked up): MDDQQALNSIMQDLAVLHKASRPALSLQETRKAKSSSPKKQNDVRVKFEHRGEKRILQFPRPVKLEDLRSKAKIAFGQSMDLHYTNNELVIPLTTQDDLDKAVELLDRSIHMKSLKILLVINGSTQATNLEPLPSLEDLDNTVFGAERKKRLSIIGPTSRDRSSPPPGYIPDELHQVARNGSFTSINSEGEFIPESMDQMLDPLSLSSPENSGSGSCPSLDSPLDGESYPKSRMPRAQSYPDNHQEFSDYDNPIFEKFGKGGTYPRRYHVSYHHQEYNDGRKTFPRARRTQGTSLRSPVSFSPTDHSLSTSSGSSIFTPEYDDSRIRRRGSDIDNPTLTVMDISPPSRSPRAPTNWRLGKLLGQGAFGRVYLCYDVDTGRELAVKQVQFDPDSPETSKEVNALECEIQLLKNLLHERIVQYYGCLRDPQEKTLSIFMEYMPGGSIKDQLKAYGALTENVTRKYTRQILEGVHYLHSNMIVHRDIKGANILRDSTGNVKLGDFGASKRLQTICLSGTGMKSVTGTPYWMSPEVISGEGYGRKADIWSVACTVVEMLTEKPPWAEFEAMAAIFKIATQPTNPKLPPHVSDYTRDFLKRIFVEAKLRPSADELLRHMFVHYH
UniProt Q8TF76, sequence (whole entry, looked up): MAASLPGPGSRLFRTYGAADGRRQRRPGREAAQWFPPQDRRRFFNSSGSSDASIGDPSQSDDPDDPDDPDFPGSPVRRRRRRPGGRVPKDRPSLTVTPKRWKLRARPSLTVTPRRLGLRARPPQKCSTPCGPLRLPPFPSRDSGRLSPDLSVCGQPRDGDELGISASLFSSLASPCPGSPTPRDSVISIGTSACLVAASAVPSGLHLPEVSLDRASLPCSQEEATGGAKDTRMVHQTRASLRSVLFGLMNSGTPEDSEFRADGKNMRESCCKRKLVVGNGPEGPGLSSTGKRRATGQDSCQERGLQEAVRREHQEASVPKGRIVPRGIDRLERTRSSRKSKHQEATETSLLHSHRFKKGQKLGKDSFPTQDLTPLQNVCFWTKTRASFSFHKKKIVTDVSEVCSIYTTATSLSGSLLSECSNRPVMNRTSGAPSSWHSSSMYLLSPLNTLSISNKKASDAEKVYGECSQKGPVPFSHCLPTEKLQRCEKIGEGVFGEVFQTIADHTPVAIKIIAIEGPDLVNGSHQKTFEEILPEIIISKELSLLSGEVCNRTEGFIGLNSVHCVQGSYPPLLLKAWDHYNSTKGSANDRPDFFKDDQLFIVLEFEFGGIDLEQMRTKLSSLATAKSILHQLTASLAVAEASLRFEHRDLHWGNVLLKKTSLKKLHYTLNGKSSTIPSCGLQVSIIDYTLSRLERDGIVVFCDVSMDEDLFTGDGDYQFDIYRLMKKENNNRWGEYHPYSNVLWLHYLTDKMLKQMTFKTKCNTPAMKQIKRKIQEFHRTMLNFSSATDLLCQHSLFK
UniProt P51817, sequence (whole entry, looked up): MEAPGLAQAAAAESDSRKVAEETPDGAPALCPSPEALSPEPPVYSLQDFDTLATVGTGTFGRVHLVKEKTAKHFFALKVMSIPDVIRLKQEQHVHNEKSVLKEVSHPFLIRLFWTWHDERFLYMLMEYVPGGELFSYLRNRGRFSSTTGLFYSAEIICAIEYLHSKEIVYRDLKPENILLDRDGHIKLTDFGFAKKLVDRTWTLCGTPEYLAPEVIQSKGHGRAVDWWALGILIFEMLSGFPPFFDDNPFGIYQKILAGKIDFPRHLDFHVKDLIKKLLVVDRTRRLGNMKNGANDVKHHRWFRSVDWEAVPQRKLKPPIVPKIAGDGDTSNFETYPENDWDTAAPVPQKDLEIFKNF

Study 1
Compound: COc1cc(C(=O)OCCCN2CCCN(CCCOC(=O)c3cc(OC)c(OC)c(OCc4ccc([N+](=O)[O-])cc4)c3)CC2)cc(OC)c1OC
It gave 30% and 40% and 20% for “paw withdrawal frequency” (von Frey test; mouse, CFA inflammatory pain; intrathecal, dose not given, 1 h, added: DPCPX 10 nmol intrathecal).
For von Frey, 0.4 g filament; mouse, CFA inflammatory pain; intravenous, dose not given, 5 h post-dose, third injection, day 5: “paw withdrawal frequency” read 50% and 30% and 20% and 40%.
The “paw withdrawal frequency” was 70% and 50% and 40% and 60% (von Frey, 0.4 g filament; mouse, CFA inflammatory pain; intravenous, dose not given, 5 h post-dose, second injection, day 3).
For von Frey, 0.4 g filament; mouse, CFA inflammatory pain; subcutaneous, 10 mg/kg, 5 h post-dose, first injection, day 1: “paw withdrawal frequency” read 70% and 50% and 80%.
von Frey, 0.4 g filament; mouse, CFA inflammatory pain; subcutaneous, 10 mg/kg, after CFA, before dosing — “paw withdrawal frequency”: 80% and 60% and 90% and 70%.
von Frey test; mouse, STZ diabetic neuropathy; subcutaneous, 30 mg/kg, second of three doses, 5 h — “paw withdrawal frequency”: 0.1 fraction of stimuli and 0.4 fraction of stimuli and 0.23 fraction of stimuli and 0.19 fraction of stimuli and 0.08 fraction of stimuli and 0.36 fraction of stimuli and 0.11 fraction of stimuli.
The “paw withdrawal frequency” was 70% and 80% (von Frey, 0.4 g filament; mouse, CFA inflammatory pain; subcutaneous, 10 mg/kg, 24 h post-dose, second injection, day 3).
It gave 50% and 70% and 60% and 80% for “paw withdrawal frequency” (von Frey, 0.4 g filament; mouse, CFA inflammatory pain; subcutaneous, 10 mg/kg, 5 h post-dose, second injection, day 3).
For von Frey, 0.4 g filament; mouse, CFA inflammatory pain; intravenous, dose not given, 3 h post-dose, third injection, day 5: “paw withdrawal frequency” read 20% and 0% and 10%.
It gave 60% and 70% and 50% for “paw withdrawal frequency” (von Frey, 0.4 g filament; mouse, CFA inflammatory pain; intravenous, dose not given, 24 h post-dose, second injection, day 3).
The “paw withdrawal frequency” was 80% and 70% and 50% (von Frey, 0.4 g filament; mouse, CFA inflammatory pain; subcutaneous, 10 mg/kg, 1 h post-dose, third injection, day 5).
The “paw withdrawal frequency” was 50% and 40% and 60% (von Frey test; mouse, CFA inflammatory pain; intrathecal, dose not given, 5 h, added: DPCPX 10 nmol intrathecal).
It gave 0.29 fraction of stimuli and 0.08 fraction of stimuli and 0.13 fraction of stimuli and 0.03 fraction of stimuli and 0.12 fraction of stimuli and 0.23 fraction of stimuli for “paw withdrawal frequency” (von Frey test; mouse, STZ diabetic neuropathy; subcutaneous, 30 mg/kg, second of three doses, 0 h).

Study 2
Structure (SMILES): C=CC(=O)N1CCN(c2nc(OC[C@@H]3CCCN3C)nc3c2CCN(c2cccc4cccc(C)c24)C3)C[C@@H]1CC#N
Effect on: binding
Mode: competitor
Method: NanoBRET
Cell line: HEK293
KRAS G13D: GTPase KRas (KRAS, Homo sapiens, UniProt P01116, G13D)
KRAS Q61R: GTPase KRas (KRAS, Homo sapiens, UniProt P01116, Q61R)
KRAS G12D: GTPase KRas (KRAS, Homo sapiens, UniProt P01116, G12D)
For KRAS G13D; 27.4 nM: normalized BRET read 99.2% and 87.9% and 88.3%.
The normalized BRET was 99.9% and 99.7% and 91.1% (KRAS Q61R; 3.05 nM).
The normalized BRET was 81.5% and 74.7% and 83.4% (KRAS G13D; 247 nM).
For KRAS G13D; 2.22 µM: normalized BRET read 42.2% and 31.2% and 39.1%.
The normalized BRET was 59.5% and 52.3% and 61.6% (KRAS G13D; 741 nM).
For KRAS Q61R; 2.22 µM: normalized BRET read 106% and 108% and 87.3%.
For KRAS G12D; 27.4 nM: normalized BRET read 91.8% and 88.1%.
The normalized BRET was 74.6% and 49% (KRAS G12D; 2.22 µM).
For KRAS G13D; 6.67 µM: normalized BRET read 37.5% and 22.5% and 21%.
It gave 104% for normalized BRET (KRAS G12D; 611 pM).

Study 3
SMILES: C[C@@H]1CN(c2ccc(-c3cc(C(=O)NCCOCCOCCOCCOCCNC(=O)Cn4cc(-c5[nH]cc(C(=O)N[C@@H](CC(N)=O)c6ccc(F)c(Cl)c6)c5-c5ccc(Cl)cc5F)cn4)ccc3F)cc2NC(=O)c2c[nH]c(=O)cc2C(F)(F)F)C[C@H](C)N1C
Effect on: thermal unfolding
Method: differential scanning fluorimetry
Tested at: 5.5 µM
Direction: higher = more unfolded
DCAF1: DDB1- and CUL4-associated factor 1 (DCAF1, Homo sapiens, UniProt Q9Y4B6)
UniProt Q9Y4B6, sequence (whole entry, looked up): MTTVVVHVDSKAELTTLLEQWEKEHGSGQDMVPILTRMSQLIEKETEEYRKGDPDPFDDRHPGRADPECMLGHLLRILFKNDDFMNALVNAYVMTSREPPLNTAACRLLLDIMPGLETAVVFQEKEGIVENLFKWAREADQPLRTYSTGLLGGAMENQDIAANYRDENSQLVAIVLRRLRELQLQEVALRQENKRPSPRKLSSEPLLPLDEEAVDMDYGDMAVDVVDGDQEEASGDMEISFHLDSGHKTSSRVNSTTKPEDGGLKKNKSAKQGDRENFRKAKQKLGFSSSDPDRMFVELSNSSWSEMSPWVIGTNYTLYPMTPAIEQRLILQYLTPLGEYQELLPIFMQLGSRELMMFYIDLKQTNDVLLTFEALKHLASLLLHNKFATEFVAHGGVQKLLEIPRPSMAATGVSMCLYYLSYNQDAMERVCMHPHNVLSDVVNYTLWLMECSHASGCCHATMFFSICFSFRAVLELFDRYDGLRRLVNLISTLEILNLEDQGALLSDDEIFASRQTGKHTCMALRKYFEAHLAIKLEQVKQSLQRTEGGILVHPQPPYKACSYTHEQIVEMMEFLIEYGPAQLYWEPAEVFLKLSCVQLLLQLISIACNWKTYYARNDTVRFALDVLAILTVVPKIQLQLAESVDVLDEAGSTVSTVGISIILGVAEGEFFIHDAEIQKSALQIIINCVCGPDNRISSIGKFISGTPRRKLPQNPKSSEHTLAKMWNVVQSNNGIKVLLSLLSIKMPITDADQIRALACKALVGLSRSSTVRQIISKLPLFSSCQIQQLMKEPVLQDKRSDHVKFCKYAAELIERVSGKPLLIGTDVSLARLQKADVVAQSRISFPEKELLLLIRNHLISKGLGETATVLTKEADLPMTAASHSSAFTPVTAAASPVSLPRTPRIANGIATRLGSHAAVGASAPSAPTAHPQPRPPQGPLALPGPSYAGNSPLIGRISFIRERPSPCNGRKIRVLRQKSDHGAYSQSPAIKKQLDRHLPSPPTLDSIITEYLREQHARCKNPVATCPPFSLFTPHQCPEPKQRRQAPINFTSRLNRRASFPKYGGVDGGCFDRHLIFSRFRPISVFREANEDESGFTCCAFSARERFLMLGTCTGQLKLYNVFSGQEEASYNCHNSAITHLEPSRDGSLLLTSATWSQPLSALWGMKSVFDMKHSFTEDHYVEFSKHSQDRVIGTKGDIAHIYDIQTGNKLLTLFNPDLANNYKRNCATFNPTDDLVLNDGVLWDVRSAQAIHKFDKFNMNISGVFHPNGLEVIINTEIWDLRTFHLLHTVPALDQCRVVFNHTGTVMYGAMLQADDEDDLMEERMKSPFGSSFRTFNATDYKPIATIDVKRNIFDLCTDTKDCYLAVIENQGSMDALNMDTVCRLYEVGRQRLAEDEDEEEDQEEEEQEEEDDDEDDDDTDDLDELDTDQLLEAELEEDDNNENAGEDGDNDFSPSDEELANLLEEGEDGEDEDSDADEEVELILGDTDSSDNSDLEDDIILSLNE
WDR5: WD repeat-containing protein 5 (WDR5, Homo sapiens, UniProt P61964)
DCAF1; 72.21 °C — “SYPRO Orange fluorescence”: 52200 a.u.
The “SYPRO Orange fluorescence” was 56700 a.u. (DCAF1; 67.01 °C).
WDR5; 87.01 °C — “SYPRO Orange fluorescence”: 42900 a.u.
For DCAF1; 75.81 °C: “SYPRO Orange fluorescence” read 48400 a.u.
The “SYPRO Orange fluorescence” was 14200 a.u. (WDR5; 40.8 °C).
For WDR5; 58.61 °C: “SYPRO Orange fluorescence” read 11300 a.u.
The “SYPRO Orange fluorescence” was 25300 a.u. (WDR5; 80.61 °C).
The “SYPRO Orange fluorescence” was 14200 a.u. (WDR5; 42.2 °C).
It gave 13200 a.u. for “SYPRO Orange fluorescence” (DCAF1; 47 °C).
It gave 7690 a.u. for “SYPRO Orange fluorescence” (DCAF1; 26.6 °C).
WDR5; 56.61 °C — “SYPRO Orange fluorescence”: 12800 a.u.

Study 4
SMILES: CCC1(c2cccc(-c3cn(C)nc3C)c2)C2=C(Nc3n[nH]cc31)C(F)C(C)(C)CC2=O (single isomer, unassigned)
Tested at: 1 µM
For Mitogen-activated protein kinase kinase kinase 13 (MAP3K13, Homo sapiens, UniProt O43283); binding, competition with immobilised ligand: remaining binding read 100%.
NT-3 growth factor receptor (NTRK3, Homo sapiens, UniProt Q16288); binding, competition with immobilised ligand — remaining binding: 77%.
It gave 100% for remaining binding (Serine/threonine-protein kinase NLK (NLK, Homo sapiens, UniProt Q9UBE8); binding, competition with immobilised ligand).
It gave 89% for remaining binding (ALK tyrosine kinase receptor (ALK, Homo sapiens, UniProt Q9UM73, C1156Y); binding, competition with immobilised ligand).
For Serine/threonine-protein kinase haspin (HASPIN, Homo sapiens, UniProt Q8TF76); binding, competition with immobilised ligand: remaining binding read 95%.
cAMP-dependent protein kinase catalytic subunit PRKX (PRKX, Homo sapiens, UniProt P51817); kinase binding, KINOMEscan; relative to: DMSO control — remaining binding: 90%.
The remaining binding was 76% (Serine/threonine-protein kinase PRP4 homolog (PRPF4B, Homo sapiens, UniProt Q13523); kinase binding, KINOMEscan; relative to: DMSO control).
The remaining binding was 100% (Non-receptor tyrosine-protein kinase TYK2, JH1 domain (TYK2, Homo sapiens, UniProt P29597); kinase binding, KINOMEscan; relative to: DMSO control).
Mitogen-activated protein kinase kinase kinase 2 (MAP3K2, Homo sapiens, UniProt Q9Y2U5); kinase binding, KINOMEscan; relative to: DMSO control — remaining binding: 100%.
It gave 99% for remaining binding (Activated CDC42 kinase 1 (TNK2, Homo sapiens, UniProt Q07912); kinase binding, KINOMEscan; relative to: DMSO control).
For Tyrosine-protein kinase ABL1, phosphorylated (ABL1, Homo sapiens, UniProt P00519); binding, competition with immobilised ligand: remaining binding read 97%.
It gave 77% for remaining binding (Dual specificity mitogen-activated protein kinase kinase 3 (MAP2K3, Homo sapiens, UniProt P46734); binding, competition with immobilised ligand).
For Serine/threonine-protein kinase STK11 (STK11, Homo sapiens, UniProt Q15831); binding, competition with immobilised ligand: remaining binding read 93%.
Calcium/calmodulin-dependent protein kinase kinase 2 (CAMKK2, Homo sapiens, UniProt Q96RR4); kinase binding, KINOMEscan; relative to: DMSO control — remaining binding: 100%.
Tyrosine-protein kinase Lck (LCK, Homo sapiens, UniProt P06239); kinase binding, KINOMEscan; relative to: DMSO control — remaining binding: 100%.
For Tyrosine-protein kinase Fer (FER, Homo sapiens, UniProt P16591); kinase binding, KINOMEscan; relative to: DMSO control: remaining binding read 100%.
The remaining binding was 81% (Homeodomain-interacting protein kinase 3 (HIPK3, Homo sapiens, UniProt Q9H422); kinase binding, KINOMEscan; relative to: DMSO control).
For Mitogen-activated protein kinase kinase kinase kinase 2 (MAP4K2, Homo sapiens, UniProt Q12851); binding, competition with immobilised ligand: remaining binding read 92%.
Serine/threonine-protein kinase Nek11 (NEK11, Homo sapiens, UniProt Q8NG66); binding, competition with immobilised ligand — remaining binding: 92%.
It gave 85% for remaining binding (Myotonin-protein kinase (DMPK, Homo sapiens, UniProt Q09013); binding, competition with immobilised ligand).

A few entries again (study 2):
For KRAS G13D; 2.22 µM: normalized BRET read 42.2% and 31.2% and 39.1%.
The normalized BRET was 59.5% and 52.3% and 61.6% (KRAS G13D; 741 nM).
For KRAS Q61R; 2.22 µM: normalized BRET read 106% and 108% and 87.3%.
For KRAS G12D; 27.4 nM: normalized BRET read 91.8% and 88.1%.
